# Measured values collected from several papers.
# Each line is one published result; not all experiments were run side by side. Values joined by “and” are separate records of one study, mostly repeats; a detail may differ.
# Target: Ribosomal protein S6 kinase alpha-4 (RPS6KA4, Homo sapiens, UniProt O75676)
SMILES,test,conditions,how to read,endpoint,result
C=CC(=O)N1Cc2nc(-c3cc(-c4cc(Cl)cnc4Cl)c(F)cc3F)n(-c3ccncn3)c2C1,"cell-free assay, inhibitor",1 µM,,inhibition,6.6%
NC(=O)[C@@H](O)C[C@H]1CCc2sc3ncnc(O[C@H]4CC[C@H](N5CCOCC5)CC4)c3c21,"enzyme activity, inhibitor",10 µM,,inhibition,10%
CNC(=O)C[C@H](Cc1ccc(C#N)cc1)NC(=O)c1cc(-c2ccc(CN[C@H](C)c3ccc(C)cc3)o2)ccc1Cl,"enzyme activity, inhibitor",1 µM,,activity vs control,86%
CCn1cc(C(=O)O)c(=O)c2c(N)c(F)c(NC3CCCCC3)cc21,kinase activity,"0.1 µM, added: ATP at Km",,inhibition,7.7%
O=C(Cc1ccc(OCc2ccccc2)cc1)NC1(C(=O)O)CCN(C(=O)c2ccc(-c3cccc(Cl)c3)cc2)CC1,"enzyme activity, inhibitor",10 µM,,activity vs control,93%
Cc1cccc(O[C@H]2CCC[C@@H](C(C)CNCc3ccncc3)C2)c1 (relative stereo),"enzyme activity, inhibitor",1 µM,,inhibition,2%
NC(=O)C[C@H]1CCc2sc3ncnc(O[C@H]4CC[C@H](N5CCOCC5)CC4)c3c21,"enzyme activity, inhibitor",10 µM,,inhibition,5%
COCC12C(=O)NC3C4(C(OC)CC1O)C1CC5(O)C(OC)C(O)C(OC(C)=O)(C1C5OC(=O)c1ccccc1)C3(O)C(OC)C24 (stereo not drawn),"kinase activity, inhibitor, ProQinase kinase profiling",25 µM,baseline: control,remaining activity,99% and 98%
Nc1ncc(-c2cc(-c3cnn(CC(F)(F)F)c3)ncc2F)nc1C(=O)NC1CNCC(F)C1 (stereo not drawn),enzyme activity,1 µM,baseline: DMSO control,remaining activity,106%
COc1ccc(NC(=O)Nc2ccc3c(c2)C(=O)N(C(C)CO)CC(C)C(CN(C)Cc2ccc4c(c2)OCO4)O3)cc1 (stereo not drawn),"kinase activity, KinaseProfiler","0.03 µM, species human",baseline: control,remaining activity,103%
CN1CCN(Cc2ccc(-c3ccc(CO[C@H]4CCC[C@@H]4NC(=O)c4cc(-c5cnn(C)c5)cnc4N)cc3)cc2)CC1,"enzyme activity, inhibitor",0.1 µM,,inhibition,6%
COc1ccc(C(=O)/C=C/c2ccccc2-c2c[nH]c3ccc(C#N)cc23)c(O)c1,"enzyme activity, inhibitor",20 µM,,inhibition,26%
COc1c(OCCCN2CCOCC2)ccc2c1N=C(NC(=O)c1cnc(N)nc1)N1CCN=C21,"kinase activity, inhibitor",1 µM,baseline: untreated control,remaining activity,98%
CN1CC[C@@H](COc2cnc(C#N)cc2-c2ccn3nc(NC(=O)C4CC4)cc3c2)C1,"enzyme activity, inhibitor",1 µM,,inhibition,-2%
O=C(O)CCC(=O)c1cccc(NS(=O)(=O)c2c[nH]c3ncccc23)c1,"kinase activity, radiometric",10 µM,,remaining activity,108%
Cc1nc2c(F)cc(-c3nc(Nc4ccc(CNC(=O)CCCCCCC(=O)NO)cc4)ncc3F)cc2n1C(C)C,"enzyme activity, inhibitor",1 µM,,inhibition,82%
O=C=[N][Ru-4]123([n]4c5ccc(O)cc5c5c6c(c7cc(F)c[n+]1c7c54)C(=O)NC6=O)[S+]1CC[S+]2CC[S+]3CC1 (stereo not drawn),enzyme activity,"100 nM, human enzyme, added: 10 µM ATP",baseline: untreated,remaining activity,22%
C=CC(=O)Nc1cccc(-c2cnc3[nH]cc(C(=O)NC(C)(C)C)c3n2)c1,"enzyme activity, inhibitor",0.1 µM,,inhibition,6%
